Measured values gathered from unrelated publications.
Lines come from different studies, so protocols differ.
UniProt P30530, sequence (whole entry, looked up): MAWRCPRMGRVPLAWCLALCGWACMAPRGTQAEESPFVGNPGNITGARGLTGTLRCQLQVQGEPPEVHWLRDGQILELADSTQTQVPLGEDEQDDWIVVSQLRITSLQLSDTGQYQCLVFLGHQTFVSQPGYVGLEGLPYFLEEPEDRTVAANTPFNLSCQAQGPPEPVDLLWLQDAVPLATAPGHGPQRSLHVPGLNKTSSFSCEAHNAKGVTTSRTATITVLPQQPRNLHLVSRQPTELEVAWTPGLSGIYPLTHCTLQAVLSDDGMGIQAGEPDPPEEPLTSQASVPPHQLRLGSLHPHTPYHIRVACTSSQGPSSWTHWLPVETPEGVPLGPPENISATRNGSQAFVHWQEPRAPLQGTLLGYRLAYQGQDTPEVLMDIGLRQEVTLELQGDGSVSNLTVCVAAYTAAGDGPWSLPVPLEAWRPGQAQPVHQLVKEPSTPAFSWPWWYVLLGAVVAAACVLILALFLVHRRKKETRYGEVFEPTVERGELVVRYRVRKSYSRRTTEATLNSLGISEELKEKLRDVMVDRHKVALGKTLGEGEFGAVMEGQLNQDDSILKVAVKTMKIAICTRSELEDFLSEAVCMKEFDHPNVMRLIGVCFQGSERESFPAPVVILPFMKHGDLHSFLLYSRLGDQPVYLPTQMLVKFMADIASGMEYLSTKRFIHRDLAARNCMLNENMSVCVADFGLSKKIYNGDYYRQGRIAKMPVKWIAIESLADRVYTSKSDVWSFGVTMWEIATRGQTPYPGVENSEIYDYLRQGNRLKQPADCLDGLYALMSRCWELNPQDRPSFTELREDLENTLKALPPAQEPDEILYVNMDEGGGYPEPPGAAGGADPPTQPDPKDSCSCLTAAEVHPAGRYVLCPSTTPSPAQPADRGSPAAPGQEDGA
UniProt P08069, sequence (whole entry, looked up): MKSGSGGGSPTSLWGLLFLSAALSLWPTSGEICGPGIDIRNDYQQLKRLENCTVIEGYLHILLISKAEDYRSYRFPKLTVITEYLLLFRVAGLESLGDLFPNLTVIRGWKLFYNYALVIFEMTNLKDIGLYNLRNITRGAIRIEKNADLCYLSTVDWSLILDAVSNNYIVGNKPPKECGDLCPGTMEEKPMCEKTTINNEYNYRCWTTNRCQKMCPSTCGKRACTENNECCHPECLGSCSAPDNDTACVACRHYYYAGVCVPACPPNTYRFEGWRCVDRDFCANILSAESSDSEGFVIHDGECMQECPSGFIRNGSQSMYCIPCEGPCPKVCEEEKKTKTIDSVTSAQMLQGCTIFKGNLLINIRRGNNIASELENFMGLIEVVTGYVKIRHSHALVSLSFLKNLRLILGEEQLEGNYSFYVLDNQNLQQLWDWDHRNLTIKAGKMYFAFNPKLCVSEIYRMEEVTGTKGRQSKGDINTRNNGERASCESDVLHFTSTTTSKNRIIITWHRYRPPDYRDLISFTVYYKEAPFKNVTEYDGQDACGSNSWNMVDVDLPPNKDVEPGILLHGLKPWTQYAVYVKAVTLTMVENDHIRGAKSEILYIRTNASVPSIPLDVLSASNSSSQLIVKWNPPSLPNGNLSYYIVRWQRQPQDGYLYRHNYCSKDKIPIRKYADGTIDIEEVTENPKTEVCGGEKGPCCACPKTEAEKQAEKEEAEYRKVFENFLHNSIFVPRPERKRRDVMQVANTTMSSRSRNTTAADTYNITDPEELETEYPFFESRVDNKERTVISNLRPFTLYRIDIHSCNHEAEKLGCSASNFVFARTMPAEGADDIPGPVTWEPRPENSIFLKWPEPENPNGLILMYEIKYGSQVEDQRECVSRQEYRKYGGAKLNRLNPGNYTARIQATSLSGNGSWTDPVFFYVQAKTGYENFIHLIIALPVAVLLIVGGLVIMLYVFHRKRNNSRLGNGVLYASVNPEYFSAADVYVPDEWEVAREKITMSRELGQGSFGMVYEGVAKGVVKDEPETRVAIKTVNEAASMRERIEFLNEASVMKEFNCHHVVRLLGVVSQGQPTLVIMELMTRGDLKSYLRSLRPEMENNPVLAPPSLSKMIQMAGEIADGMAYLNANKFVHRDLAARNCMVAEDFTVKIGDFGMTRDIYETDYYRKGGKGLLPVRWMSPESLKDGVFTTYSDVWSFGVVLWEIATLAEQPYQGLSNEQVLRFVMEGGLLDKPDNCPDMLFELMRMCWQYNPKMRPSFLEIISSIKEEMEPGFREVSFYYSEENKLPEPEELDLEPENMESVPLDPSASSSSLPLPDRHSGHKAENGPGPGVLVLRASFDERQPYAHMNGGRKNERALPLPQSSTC
UniProt O94768, sequence (whole entry, looked up): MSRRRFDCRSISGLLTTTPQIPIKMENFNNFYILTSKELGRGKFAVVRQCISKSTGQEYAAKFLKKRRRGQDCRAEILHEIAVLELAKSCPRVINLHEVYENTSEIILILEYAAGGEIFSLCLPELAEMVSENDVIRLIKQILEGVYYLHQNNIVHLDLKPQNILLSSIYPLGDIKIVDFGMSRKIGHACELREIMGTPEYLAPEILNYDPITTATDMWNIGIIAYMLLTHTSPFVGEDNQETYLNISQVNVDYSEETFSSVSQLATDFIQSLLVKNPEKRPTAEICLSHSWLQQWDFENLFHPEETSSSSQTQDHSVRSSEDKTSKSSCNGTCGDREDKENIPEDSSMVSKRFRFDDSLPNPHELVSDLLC

CNc1ncc2c(/C=C/C(=O)N3CCC(OC)CC3)nn(Cc3cccc(C(F)(F)F)c3)c2n1 — remaining activity (Tyrosine-protein kinase receptor UFO (AXL, Homo sapiens, UniProt P30530); enzyme activity, inhibitor, radiometric; 1 µM): 103%
Cc1ccc(N(C)c2ccc(NC(=O)CN(C)c3ccc(F)cc3N3CCCC3=O)cc2)cc1 — EC50 (Plasmodium falciparum; parasite growth; 3D7; 72 h, blood stage): 0.016 µM
O=C(NCc1cc(O)c(O)c(Br)c1)c1nccs1 — EC50 (Porcine epidemic diarrhea virus; viral replication, inhibitor, qPCR; Vero C1008): 10.6 µM
COc1ccc2cc[nH]c2c1 — EC50 (Cryptosporidium parvum; parasite growth; HCT-8; 24 h, intracellular): 349 µM
CC(=NNC(=O)c1cccnc1)c1ccc(Nc2nnc(-c3ccc(Cl)cc3)c3ccccc23)cc1 — cell death (MCF7; cell growth or viability, MTT; 0.312 µM): 0%
Cc1cccc2cc[nH]c12 — EC50 (Cryptosporidium parvum; parasite growth; HCT-8; 24 h, intracellular): 355 µM
C/C=C/CNc1c2c([nH]c(=O)c1C(=O)OCC)CCC2 — EC50 (Human immunodeficiency virus 1; viral replication, inhibitor; IIIB; 72 h): 39.7 µM
CCN(CC(=O)Nc1ccc(Oc2ccc(C)cc2)cc1)c1ccccc1N1CCCC1=O — EC50 (Plasmodium falciparum; parasite growth; 3D7; 72 h, blood stage): 1.16 µM
N#Cc1ccc2cc[nH]c2c1 — EC50 (Cryptosporidium parvum; parasite growth; HCT-8; 24 h, intracellular): 144 µM
CCOC(=O)c1c(NCC(C)C)c2c([nH]c1=O)CCC2 — EC50 (Human immunodeficiency virus 1; viral replication, inhibitor; IIIB; 72 h): 0.54 µM
Oc1cccc2cc[nH]c12 — EC50 (Cryptosporidium parvum; parasite growth; HCT-8; 24 h, intracellular): 458 µM
COc1cc(-c2cncc3c2CN(C)Cc2cc(N4CCNCC4)ccc2-3)cc(OC)c1OC — remaining activity (Insulin-like growth factor 1 receptor (IGF1R, Homo sapiens, UniProt P08069); enzyme activity, inhibitor; 1 µM): 93%
COc1ccc2[nH]ccc2c1 — EC50 (Cryptosporidium parvum; parasite growth; HCT-8; 24 h, intracellular): 686 µM
CC(C)N(c1ccc(Cl)c(F)c1)c1ccc(NC(=O)CN(C)c2ccccc2N2CCCC2=O)c(F)c1 — EC50 (Plasmodium falciparum; parasite growth; 3D7; 72 h, blood stage): 0.002 µM
COc1cccc2cc[nH]c12 — EC50 (Cryptosporidium parvum; parasite growth; HCT-8; 24 h, intracellular): 304 µM
CCOC(=O)c1c(NC)c2c([nH]c1=O)CCC2 — EC50 (Human immunodeficiency virus 1; viral replication, inhibitor; IIIB; 72 h): > 100 µM
O=S(=O)(Nc1nccs1)c1ccc(N=NN(O)c2ccccc2)cc1 — inhibition (ABTS scavenging; 20 µg/mL): 43.8%
Cc1ccc(Oc2ccc(NC(=O)CNc3ccccc3N3CCCC3)cc2)cc1 — EC50 (Plasmodium falciparum; parasite growth; 3D7; 72 h, blood stage): > 10 µM
CCCN(O)N=Nc1ccc(S(=O)(=O)Nc2onc(C)c2C)cc1 — inhibition (ABTS scavenging; 20 µg/mL): 16%
CN(CC(=O)Nc1ccc(N(C)c2ccc(Cl)c(F)c2)cc1)c1ccccc1N1CCCC1=O — EC50 (Plasmodium falciparum; parasite growth; 3D7; 72 h, blood stage): 0.084 µM
CCCCCNc1c2c([nH]c(=O)c1C(=O)OCC)CCC2 — EC50 (Human immunodeficiency virus 1; viral replication, inhibitor; IIIB; 72 h): 10.7 µM
C=CC(=O)N1CCC(COCC(=O)N2CCN(c3nc(-c4cnc(N)nc4C(F)F)nc(N4CCOC[C@@H]4C)n3)CC2)CC1 — remaining binding (Serine/threonine-protein kinase 17B (STK17B, Homo sapiens, UniProt O94768); binding, competition with immobilised ligand; 1 µM): 100%
CCCCCCNc1c2c([nH]c(=O)c1C(=O)OCC)CCC2 — EC50 (Human immunodeficiency virus 1; viral replication, inhibitor; IIIB; 72 h): 36.9 µM
Cc1ccc(Oc2ccc(NC(=O)CNc3ccccc3-n3ccccc3=O)cc2)cc1 — EC50 (Plasmodium falciparum; parasite growth; 3D7; 72 h, blood stage): > 10 µM
CN1CCCN(c2ncc(-c3ccc4nncc(Nc5cnccn5)c4c3)cn2)CC1 — EC50 (Trypanosoma cruzi; parasite growth; C2C12; intracellular, amastigote): > 10 µM

Some of these lines once more:
COc1cccc2cc[nH]c12 — EC50 (Cryptosporidium parvum; parasite growth; HCT-8; 24 h, intracellular): 304 µM
CCOC(=O)c1c(NC)c2c([nH]c1=O)CCC2 — EC50 (Human immunodeficiency virus 1; viral replication, inhibitor; IIIB; 72 h): > 100 µM
